Published values pooled from the literature.
Each line is one published result; not all experiments were run side by side. Several values in a cell are separate wells, animals, samples, runs or records. ± gives the spread as reported.

CC(C)c1ccc(N(C)c2ccc3c(c2)OCC[C@H]3CNc2cnccc2C(=O)O)cc1
IC50 (MPP-89; cell growth, CellTiter-Glo; 7 days): ≥ 10 µM

Nc1ncc(-c2cc(-c3cnn(CC(F)(F)F)c3)ncc2F)nc1C(=O)NC1CNCC(F)C1 (stereo not drawn)
remaining binding (BRSK1; KINOMEscan; 1 µM; relative to: DMSO control): 40%

CCN(C(=O)c1cc(F)ccc1Oc1nncnc1N1CCC2(C1)CN([C@H](CCCN(C)CCOC)C(C)C)C2)C(C)C
GI50 (SF-295; brain; 168 h): > 10 µM

CCN(CC)CC(=O)Nc1cccc(-n2cc(-c3ccc4ccc(-c5cn(-c6cccc(NC(=O)CN(CC)CC)c6)nn5)cc4c3)nn2)c1
fold regulation (RCC4; PCR angiogenesis array, refers to: S1PR1; 5 x IC50, 6 h, normoxia; relative to: untreated): -1.28

Cc1cc(C(C)(C)C)ccc1OCCOCCN(C)C
larval motion (locomotor activity in dark; zebrafish larvae, 7 dpf; 10 µM, minute 5, dark phase): 11 ± 1 pixels/frame

COc1cc(O)ccc1CCC(c1ccc(O)cc1)c1cc2c(c(C)c1O)OC(c1ccc(O)cc1)CC2 (mixture of isomers)
14-HDHA level (human blood; 1 µM, together with: A23187): 583 ± 73 pg/mL

O=C(CCN1CCN(C/C=C/c2ccccc2)CC1)Nc1ccc2c(c1)CCC2
larval motion (locomotor activity in dark; zebrafish larvae, 7 dpf; 10 µM, minute 7, dark phase): 5.7 ± 0.9 pixels/frame

Cn1ncc2cc(-c3cncc(Cl)c3N3CCC4(CCNC4=O)CC3)ccc21
log2 fold change (LS174T; gene expression, microarray, refers to: PDK1 mRNA; concentration not given, 4 h; relative to: untreated cells): 1.4

CC(=O)[O-].O.O.O.O.[Mn+2].[O-]c1ccc(Br)cc1C=NCCN1CCOCC1
inhibition (nitric oxide scavenging; 200 µM): 39.9%

CC(C)(C)NCC(SS(=O)(=O)O)c1ccccc1 (stereo not drawn)
mean male worms recovered (Schistosoma mansoni; infected Swiss Webster mice; 400 mg/kg single, dosed day 42, perfusion day 56): 7.25 worms per mouse

CC1=C(Cn2cc(CN3CCC(=O)CC3)nn2)C(=O)c2ccccc2C1=O
killing (Schistosoma mansoni; adult worms; 10 µM, 24 h): 35.1%

CN(C)C(=O)c1ccnc(N2Cc3cn(Cc4ccc(F)cc4F)nc3C2)n1
paired-pulse ratio (mouse, hippocampal slice, Schaffer collaterals; dose not given, interstimulus interval 300; relative to: second over first response): 1.18 and 1.32 and 1.21 and 1.78 and 1.17 and 1.29 and 1.27

C=CC(=O)Nc1cccc(Cn2ncc3cnc(Nc4cnn(CCOC)c4)nc32)c1
percent of control (CSNK1G1 human; binding, KINOMEscan; 100 nM; lower = stronger binding): 100%

COCCNCCOc1cc(C)cc(C(C)C)c1
larval motion (zebrafish larvae, 7 dpf; 10 µM, minute 2): 17.5 ± 1.7 pixels/frame

CN1CCCNC(=O)c2cccc(c2)C(=O)NCCCN(C)CCCNc2cccc3c2C(=O)c2cccc(c2C3=O)NCCC1
log2 fold change (SAS; RNA-Seq, refers to: TXNRD1 mRNA; 1 µM, 6 h; relative to: untreated cells): 0.433

Cc1ncsc1-c1ccc(C(C)NC(=O)C2CC(O)CN2C(=O)C(NC(=O)CCCCCCCCCCN2CCCC(Nc3ncc(Cl)c(Nc4ccccc4S(=O)(=O)C(C)C)n3)C2)C(C)(C)C)cc1 (stereo not drawn)
log2 fold change (22Rv1; RNA-seq, refers to: PSRC1 mRNA; concentration not given; relative to: DMSO): -1.37

C=CC(=O)N1[C@@H](c2ccc3c(c2)OCO3)c2[nH]c3ccccc3c2C[C@H]1C(=O)N1CCN(C)CC1
relative co-enrichment (human cyclin E1 wild type-3xFLAG:CDK2; co-IP with TMT proteomics, refers to: DHX9; concentration not given, Q08211; relative to: wild type DMSO): 95%

COC1CN([C@H]2CC[C@H]([C@@]3(C)Oc4c(Cl)cc(C(=O)NCc5c(SC)cc(C)[nH]c5=O)c(C)c4O3)CC2)C1
log2 fold change (RNA-seq, refers to: YPEL4 mouse homolog; mouse, HT-1376 xenograft, whole blood; dose not given; relative to: vehicle): 1.48

CCc1cc(OCCOCCN(C)C)ccc1Cl
larval motion (locomotor activity in dark; zebrafish larvae, 7 dpf; 10 µM, minute 5, dark phase): 1.7 ± 1.2 pixels/frame

CN1CCC[C@]1(C)/C=C/S(=O)(=O)NC(=O)Nc1c2c(cc3c1CCC3)CCC2
IL-18 inhibition (human, whole blood ex vivo; 12.5 mg twice daily, day 14, 3 h, multiple ascending dose, together with: LPS and ATP): 107%

O=C(CCN1CCN(C/C=C/c2ccccc2)CC1)Nc1ccccc1F
larval motion (zebrafish larvae, 7 dpf; 10 µM, minute 4): 7.2 ± 1.9 pixels/frame

CNS(=O)(=O)Nc1nccc(Cc2c(C)c3ccc(Oc4ncccc4F)cc3oc2=O)c1F
IC50 (MKN-1; cell viability; 7 days): > 1 µM

Cc1cc(OCCOCCn2ccnc2)cc(C(C)C)c1
larval motion (locomotor activity in dark; zebrafish larvae, 7 dpf; 10 µM, minute 5, dark phase): 1.3 ± 0.6 pixels/frame

c1ccc(-c2n[nH]cc2-c2ccnc3ccccc23)nc1
log2 fold change (SSK2 (Candida albicans); kinase binding, MIB/MS competition; Candida albicans lysate; 1 µM; relative to: DMSO): -0.19
